Assay results from different studies.
Each line is one published result; not all experiments were run side by side. ± marks the error that the study gave. ≈ marks a conversion by molar mass, not a printed value.

Structure (SMILES)	organism	assay	test system	setting	scale	measurement	result
Cc1ccc2nc(-c3ccccc3)c(CN3CC[C@H](F)C3)n2c1	Trypanosoma cruzi		3T3 host cells, Tulahuen beta-galactosidase	6 days		EC50	8.61 µM
CN(C)c1cc(CNCC(N)=O)c(O)c2c1C[C@H]1C[C@H]3[C@H](N(C)C)C(O)=C(C(N)=O)C(=O)[C@@]3(O)C(O)=C1C2=O	Streptococcus pneumoniae		ATCC 700905, Tet M ribosome protection			MIC	2 µg/mL (≈ 3.68 µM)
Cc1ccc2nc(-c3ccccc3)c(CN3CCN(c4ccccc4)CC3)n2c1	Trypanosoma cruzi		3T3 host cells, Tulahuen beta-galactosidase	6 days		EC50	5.2 µM
CC(C)CC(=O)N[C@H](C(=O)N[C@H](C(=O)N[C@@H](CC(C)C)[C@@H](O)CC(=O)N[C@@H](C)C(=O)N[C@@H](CC(C)C)[C@@H](O)CC(=O)O)C(C)C)C(C)C	Saccharomyces cerevisiae	protein secretion	BY4742 wild type	25 µM		inhibition	7%
C=C(C)[C@@H]1CC[C@]2(C(=O)n3ccnc3)CC[C@]3(C)[C@H](CC[C@@H]4[C@@]5(C)CCCNC(C)(C)[C@@H]5CC[C@]43C)[C@@H]12	Human cytomegalovirus	cytopathic effect	HFF, AD169			EC90	> 0.24 µM
CCn1ccc([C@H](C)[C@](O)(Cn2cnnn2)c2ccc(F)cc2F)n1	Candida tropicalis	growth, broth microdilution	2718	24 h, 30 °C, ≥50% inhibition		MIC	1 µg/mL (≈ 2.87 µM)
CN(C)c1cc(CN2CCOCC2)c(O)c2c1C[C@H]1C[C@H]3[C@H](N(C)C)C(O)=C(C(N)=O)C(=O)[C@@]3(O)C(O)=C1C2=O	Streptococcus pneumoniae	microbial growth, broth dilution				MIC	0.25 µg/mL (≈ 0.449 µM)
COc1cc(/C=C/c2cc(/C=C/c3ccc(O)c(OC)c3)n(C(=O)c3ccco3)n2)ccc1O	Spodoptera frugiperda	cell growth or viability, MTT	Sf9	100 µM, 72 h		inhibition	69.8%
CC[C@H](C)[C@H](NC(=O)[C@H](CCCN)NC(=O)[C@H](CC(N)=O)NC(=O)[C@H](CC(C)C)NC(=O)[C@H](Cc1ccccc1)NC(=O)[C@H](CCCN)NC(=O)[C@H](CCCCNC(=N)N)NC(=O)[C@H](CC(C)C)NC(=O)[C@H](CC(C)C)NC(=O)[C@H](CCCN)NC(=O)[C@H](CCCCNC(=N)N)NC(=O)[C@H](CC(C)C)NC(=O)CNC(C)=O)C(=O)N[C@@H](CCCN)C(=O)N[C@@H](CCCCNC(=N)N)C(N)=O	all bacteria tested					geometric mean MIC	4.42 µM
CC[C@H](C)[C@H](N)C(=O)NCC(=O)N1CCC[C@H]1C(=O)N[C@@H](CC(C)C)C(=O)N[C@H](C(=O)N[C@H](C(=O)N1CCC[C@H]1C(=O)N[C@H](C(=O)N[C@@H](C)C(=O)N[C@@H](C)C(=O)N[C@H](C(=O)N[C@@H](CC(C)C)C(N)=O)[C@@H](C)CC)C(C)C)[C@@H](C)CC)C(C)C	Gram-negative bacteria			concentration not given		antibacterial activity	inactive
C[N+](C)(CC(=O)Nc1cccc(C(F)(F)F)c1)CC(=O)Nc1cccc(C(F)(F)F)c1	Zika virus		Huh-7		relative to: CC50 over EC50	selectivity index	136
Nc1ncnc2c1c(-c1ccc(Cl)c(C(F)(F)F)c1)cn2[C@@H]1O[C@H](CO)[C@@H](O)[C@H]1O	Trichomonas vaginalis	resorufin	G3, metronidazole-sensitive	24 h + 2 h, 2% O2		EC50	12.7 ± 0.47 µM
CN(C)c1cc(CNC(C)(C)C)c(O)c2c1C[C@H]1C[C@H]3[C@H](N(C)C)C(O)=C(C(N)=O)C(=O)[C@@]3(O)C(O)=C1C2=O	Streptococcus pneumoniae		ATCC 700905, Tet M ribosome protection			MIC	2 µg/mL (≈ 3.69 µM)
COc1ccc(C2OC(=O)c3ccc(C(C)C)c(O)c32)cc1OC (stereo not shown)	Naegleria fowleri	parasite growth, resazurin	ATCC30808	48 h		IC50	89.1 µM
COc1ccc(Nc2c(C#N)cnc3ccc(Cl)cc23)cc1	Trypanosoma cruzi		cardiomyocytes, intracellular amastigotes, Y	at least 15 µM, 72 h		reduction of endocytic index	~70%
COC1C=COC2(C)Oc3c(C)c(O)c4c(c3C2=O)C2=NC3(CCN(CC(C)C)CC3)NC2=C(NC(=O)C(C)=CC=CC(C)C(O)C(C)C(O)C(C)C(OC(=O)Nc2cccnn2)C1C)C4=O (stereo not shown)	Mycobacteroides abscessus		ATCC 19977	1-log kill, replicating cultures		MBC	0.06 µM (≈ 0.0556 µg/mL)

For quick reference, copied from above:
Structure (SMILES)	organism	assay	test system	setting	scale	measurement	result
COc1ccc(C2OC(=O)c3ccc(C(C)C)c(O)c32)cc1OC (stereo not shown)	Naegleria fowleri	parasite growth, resazurin	ATCC30808	48 h		IC50	89.1 µM
